# Results collected from several papers.
# Compare with care: the assays were run in different laboratories. Several values in a cell are separate wells, animals, samples, runs or records. Numbers after ± are the reported error.
# MAP3K20: Mitogen-activated protein kinase kinase kinase 20 (MAP3K20, Homo sapiens, UniProt Q9NYL2)
# Chain of UniProt Q9NYL2 (whole entry, looked up): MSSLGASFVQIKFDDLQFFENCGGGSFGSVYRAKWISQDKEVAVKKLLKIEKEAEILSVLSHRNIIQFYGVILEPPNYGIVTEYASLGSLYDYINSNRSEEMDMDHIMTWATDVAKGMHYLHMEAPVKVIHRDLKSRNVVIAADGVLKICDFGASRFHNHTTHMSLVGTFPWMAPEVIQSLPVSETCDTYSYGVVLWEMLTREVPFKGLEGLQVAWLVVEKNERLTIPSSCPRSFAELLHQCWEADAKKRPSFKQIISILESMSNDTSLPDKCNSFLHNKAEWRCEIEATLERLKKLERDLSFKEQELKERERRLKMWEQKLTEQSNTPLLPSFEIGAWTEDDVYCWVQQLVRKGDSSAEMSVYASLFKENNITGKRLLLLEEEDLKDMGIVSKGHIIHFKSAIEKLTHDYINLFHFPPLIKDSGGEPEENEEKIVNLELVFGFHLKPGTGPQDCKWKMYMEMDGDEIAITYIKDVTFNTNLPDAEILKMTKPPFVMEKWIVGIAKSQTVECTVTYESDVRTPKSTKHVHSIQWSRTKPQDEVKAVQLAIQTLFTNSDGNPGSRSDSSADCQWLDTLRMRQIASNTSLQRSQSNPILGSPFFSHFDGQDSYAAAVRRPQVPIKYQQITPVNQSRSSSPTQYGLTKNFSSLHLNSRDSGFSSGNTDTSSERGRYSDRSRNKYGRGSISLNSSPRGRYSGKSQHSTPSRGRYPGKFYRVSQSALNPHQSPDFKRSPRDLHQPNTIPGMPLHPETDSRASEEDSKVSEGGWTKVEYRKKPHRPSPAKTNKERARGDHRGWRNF
# fdhA: fdhA (Pseudomonas putida, UniProt P46154)
# Chain of UniProt P46154 (whole entry, looked up): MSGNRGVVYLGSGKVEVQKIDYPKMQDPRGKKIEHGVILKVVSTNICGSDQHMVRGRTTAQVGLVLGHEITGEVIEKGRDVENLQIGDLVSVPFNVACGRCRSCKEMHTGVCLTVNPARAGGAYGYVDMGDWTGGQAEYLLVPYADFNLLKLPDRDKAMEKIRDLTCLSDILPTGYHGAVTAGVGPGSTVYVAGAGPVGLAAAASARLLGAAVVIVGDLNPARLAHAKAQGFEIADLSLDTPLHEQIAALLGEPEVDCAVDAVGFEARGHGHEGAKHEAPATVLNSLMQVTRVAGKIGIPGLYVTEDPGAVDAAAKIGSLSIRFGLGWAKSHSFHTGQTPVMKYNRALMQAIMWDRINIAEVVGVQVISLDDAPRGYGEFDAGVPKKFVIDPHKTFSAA
# MAPKAPK5: MAP kinase-activated protein kinase 5 (MAPKAPK5, Homo sapiens, UniProt Q8IW41)
# Chain of UniProt Q92626 (whole entry, looked up): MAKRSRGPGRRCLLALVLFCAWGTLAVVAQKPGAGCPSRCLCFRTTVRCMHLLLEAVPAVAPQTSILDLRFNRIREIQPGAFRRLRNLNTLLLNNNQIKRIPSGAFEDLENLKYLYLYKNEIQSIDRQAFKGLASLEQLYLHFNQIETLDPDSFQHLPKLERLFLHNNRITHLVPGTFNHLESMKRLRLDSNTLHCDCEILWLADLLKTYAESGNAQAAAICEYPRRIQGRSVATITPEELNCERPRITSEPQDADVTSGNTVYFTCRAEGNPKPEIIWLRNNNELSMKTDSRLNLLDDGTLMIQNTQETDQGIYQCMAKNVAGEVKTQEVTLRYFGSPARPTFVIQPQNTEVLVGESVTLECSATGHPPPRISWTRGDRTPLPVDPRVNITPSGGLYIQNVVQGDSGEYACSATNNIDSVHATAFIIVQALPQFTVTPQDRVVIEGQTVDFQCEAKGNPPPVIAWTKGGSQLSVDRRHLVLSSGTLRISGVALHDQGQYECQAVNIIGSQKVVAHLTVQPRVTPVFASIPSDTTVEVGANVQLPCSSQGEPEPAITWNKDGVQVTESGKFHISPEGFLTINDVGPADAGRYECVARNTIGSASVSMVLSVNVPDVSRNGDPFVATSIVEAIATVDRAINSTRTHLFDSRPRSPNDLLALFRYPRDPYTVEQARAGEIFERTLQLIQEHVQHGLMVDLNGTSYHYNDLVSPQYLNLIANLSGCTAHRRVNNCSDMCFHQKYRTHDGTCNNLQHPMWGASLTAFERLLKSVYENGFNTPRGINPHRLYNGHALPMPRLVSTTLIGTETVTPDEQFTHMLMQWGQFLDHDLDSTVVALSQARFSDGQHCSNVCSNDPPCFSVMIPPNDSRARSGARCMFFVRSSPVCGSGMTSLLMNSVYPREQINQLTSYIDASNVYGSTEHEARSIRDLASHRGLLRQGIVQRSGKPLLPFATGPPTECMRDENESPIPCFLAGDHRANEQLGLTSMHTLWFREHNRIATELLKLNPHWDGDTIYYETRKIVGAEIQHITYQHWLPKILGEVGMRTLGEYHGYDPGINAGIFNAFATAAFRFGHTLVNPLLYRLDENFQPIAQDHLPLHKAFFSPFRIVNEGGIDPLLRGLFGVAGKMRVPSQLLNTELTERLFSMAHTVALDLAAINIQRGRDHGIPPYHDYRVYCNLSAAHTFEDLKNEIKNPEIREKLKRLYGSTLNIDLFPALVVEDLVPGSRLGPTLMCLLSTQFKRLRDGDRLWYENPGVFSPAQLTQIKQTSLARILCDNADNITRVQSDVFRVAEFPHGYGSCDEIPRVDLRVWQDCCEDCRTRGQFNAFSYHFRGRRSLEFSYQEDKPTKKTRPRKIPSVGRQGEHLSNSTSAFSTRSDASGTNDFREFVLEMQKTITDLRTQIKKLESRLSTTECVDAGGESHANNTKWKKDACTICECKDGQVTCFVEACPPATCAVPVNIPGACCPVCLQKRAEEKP
# Chain of UniProt Q8IW41 (whole entry, looked up): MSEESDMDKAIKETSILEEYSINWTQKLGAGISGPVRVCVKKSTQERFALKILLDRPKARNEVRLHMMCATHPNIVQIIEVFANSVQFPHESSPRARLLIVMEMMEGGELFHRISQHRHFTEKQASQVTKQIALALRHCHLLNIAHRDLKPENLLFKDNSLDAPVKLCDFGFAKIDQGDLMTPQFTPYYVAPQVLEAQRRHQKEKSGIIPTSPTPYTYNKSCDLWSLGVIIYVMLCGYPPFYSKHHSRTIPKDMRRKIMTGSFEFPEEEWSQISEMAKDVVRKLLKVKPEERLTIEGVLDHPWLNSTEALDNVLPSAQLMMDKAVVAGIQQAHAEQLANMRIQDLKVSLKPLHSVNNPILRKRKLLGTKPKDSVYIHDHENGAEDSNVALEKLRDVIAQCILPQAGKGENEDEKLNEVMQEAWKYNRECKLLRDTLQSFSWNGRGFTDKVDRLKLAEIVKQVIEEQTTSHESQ
# Chain of UniProt Q9Y243 (whole entry, looked up): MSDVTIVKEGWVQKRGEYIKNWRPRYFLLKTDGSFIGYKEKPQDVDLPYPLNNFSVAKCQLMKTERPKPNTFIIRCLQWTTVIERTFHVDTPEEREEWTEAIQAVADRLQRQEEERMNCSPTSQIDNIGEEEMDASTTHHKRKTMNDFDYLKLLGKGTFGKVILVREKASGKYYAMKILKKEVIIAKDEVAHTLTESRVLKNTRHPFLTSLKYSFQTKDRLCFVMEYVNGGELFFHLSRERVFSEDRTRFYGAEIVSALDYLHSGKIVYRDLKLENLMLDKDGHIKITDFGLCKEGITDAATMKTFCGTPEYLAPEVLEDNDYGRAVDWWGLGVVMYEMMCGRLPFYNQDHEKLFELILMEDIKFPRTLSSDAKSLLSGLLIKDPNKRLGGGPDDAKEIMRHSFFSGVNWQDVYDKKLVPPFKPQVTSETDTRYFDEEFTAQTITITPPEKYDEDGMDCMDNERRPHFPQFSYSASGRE
# Chain of UniProt O75116 (whole entry, looked up): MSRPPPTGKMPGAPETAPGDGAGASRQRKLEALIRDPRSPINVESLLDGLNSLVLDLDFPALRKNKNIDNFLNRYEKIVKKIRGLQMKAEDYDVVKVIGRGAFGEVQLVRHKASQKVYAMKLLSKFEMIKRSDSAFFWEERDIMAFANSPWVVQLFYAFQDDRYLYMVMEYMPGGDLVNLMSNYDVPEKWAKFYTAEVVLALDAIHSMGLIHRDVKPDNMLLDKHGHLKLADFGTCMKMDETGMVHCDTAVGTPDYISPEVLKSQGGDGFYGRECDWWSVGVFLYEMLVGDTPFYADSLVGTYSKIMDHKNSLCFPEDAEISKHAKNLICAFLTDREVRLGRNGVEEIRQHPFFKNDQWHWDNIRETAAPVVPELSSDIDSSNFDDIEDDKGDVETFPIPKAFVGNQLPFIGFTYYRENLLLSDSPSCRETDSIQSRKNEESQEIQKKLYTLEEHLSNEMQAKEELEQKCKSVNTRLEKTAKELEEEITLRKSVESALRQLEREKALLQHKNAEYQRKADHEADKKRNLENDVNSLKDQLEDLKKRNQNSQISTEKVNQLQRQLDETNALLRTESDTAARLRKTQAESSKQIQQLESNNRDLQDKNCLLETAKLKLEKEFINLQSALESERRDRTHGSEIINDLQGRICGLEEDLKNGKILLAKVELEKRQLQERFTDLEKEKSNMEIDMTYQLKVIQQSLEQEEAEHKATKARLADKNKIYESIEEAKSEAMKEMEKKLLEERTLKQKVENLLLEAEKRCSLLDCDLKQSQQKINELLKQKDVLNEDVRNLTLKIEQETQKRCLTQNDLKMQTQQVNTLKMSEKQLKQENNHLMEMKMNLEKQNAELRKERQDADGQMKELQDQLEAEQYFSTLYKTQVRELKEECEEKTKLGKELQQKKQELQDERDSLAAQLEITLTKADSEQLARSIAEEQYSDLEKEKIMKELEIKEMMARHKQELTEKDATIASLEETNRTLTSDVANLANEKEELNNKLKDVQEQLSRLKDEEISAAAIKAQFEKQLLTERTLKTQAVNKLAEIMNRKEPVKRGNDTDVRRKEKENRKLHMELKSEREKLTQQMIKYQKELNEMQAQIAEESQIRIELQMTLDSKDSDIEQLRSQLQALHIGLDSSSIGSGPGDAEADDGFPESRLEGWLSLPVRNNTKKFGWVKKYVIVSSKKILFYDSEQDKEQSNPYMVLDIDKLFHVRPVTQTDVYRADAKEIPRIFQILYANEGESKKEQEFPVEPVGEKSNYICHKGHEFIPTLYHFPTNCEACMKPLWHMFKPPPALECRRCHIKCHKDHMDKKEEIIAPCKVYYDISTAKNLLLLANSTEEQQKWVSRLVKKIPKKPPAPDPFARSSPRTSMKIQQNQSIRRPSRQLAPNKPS
Compound,target,assay,system,setting,scale,remaining activity
COc1cc(F)ccc1-c1ncnc(Nc2cccc(C[S@](C)(=N)=O)c2)n1,"CLK3 (Homo sapiens, UniProt P49761)",kinase activity,,"10 µM, together with: 10 µM ATP",,93%
C=CC(=O)N1CCC[C@@H](n2nc(-c3ccc(Oc4ccccc4)cc3)c3c(N)ncnc32)C1,"TYK2 (Homo sapiens, UniProt P29597)",,,1 µM,,45.1%
Cc1cccc(C)c1C(=O)OCC(=O)[C@H](CCCCN)NC(=O)[C@H](CCCNC(=N)N)NC(=O)OCc1ccccc1,"Pro-cathepsin H (Ctsh, Mus musculus, UniProt P49935)",inhibitor,,"1 µM, together with: AMC fluorogenic substrate",reference: untreated,95%
COc1cc(N2CCN(C)CC2)ccc1Nc1nc(N)n(C(=O)NCc2c(Cl)cccc2Cl)n1,"PRPF4B (Homo sapiens, UniProt Q13523)",enzyme activity,,10 µM,reference: control,2.2%
COc1ccc(F)cc1C(=O)NCc1ccc(-c2nn([C@@H](C)C(F)(F)F)c(N)c2C(N)=O)cc1,MAP3K20,"kinase activity, inhibitor, HotSpot radiometric",,"1000 nM, together with: ATP at Km",,89.9 ± 2.9%
O=C(O)c1ccc(C(=O)c2ccccc2C(=O)O)cc1C(=O)O,fdhA,,,"concentration not given, no demethylase",,> 80%
COc1cc(-c2cncc3c2CN(C)Cc2cc(N4CCNCC4)ccc2-3)cc(OC)c1OC,"PIM3 (Homo sapiens, UniProt Q86V86)",kinase activity,,"1 µM, human enzyme, together with: ATP 10 µM",reference: DMSO control,103%
O=C(NC1CCC1)c1ccc2nc(-c3cccc(NS(=O)(=O)NCCN4CCCCC4)c3)cn2c1,"DDR2 (Homo sapiens, UniProt Q16832)",enzyme activity,,10 µM,,100%
COc1cc(N2CCN(C)CC2)ccc1Nc1nc(N)n(C(=S)NCc2c(Cl)cccc2Cl)n1,MAPKAPK5,enzyme activity,,10 µM,reference: control,16%
Cc1cc(Nc2cc(N3CCN(C)CC3)nc(Sc3ccc(NC(=O)C4CC4)cc3)n2)[nH]n1,"FLT4 (Homo sapiens, UniProt P35916)","kinase activity, KinaseProfiler",,"0.03 µM, species human",reference: control,86%
NC(=O)c1ncn([C@@H]2O[C@H](CO[P@@](=O)(O)O[P@](=O)(O)OP(=O)(O)O)[C@@H](O)[C@H]2O)n1,"Non-structural polyprotein pORF1, helicase domain (Hepatitis E virus genotype 1, UniProt P33424)","ATPase activity, inhibitor, colorimetric",,14 µM,reference: untreated,87.5%
CNc1ncc2c(/C=C/C(=O)N3CCC(OC)CC3)nn(Cc3cccc(C(F)(F)F)c3)c2n1,MAPKAPK5,"kinase activity, inhibitor",,1 µM,reference: untreated control,121%
O=C1NC(=O)/C(=C/c2ccc(-c3ccc(F)cc3O)o2)S1,"ROCK2 (Homo sapiens, UniProt O75116)",enzyme activity,,10 µM,,70%
CCCCCCCCCCCCCCNC(=O)/C=C/c1ccc(O)c(O)c1,"AMY2 (Sus scrofa, UniProt P00690)",enzyme activity,,"20 µM, together with: α-glucosidase present",,56.2 ± 3.67%
C1=C/COCc2cc(ccc2OCCN2CCCC2)Nc2nccc(n2)-c2cccc(c2)COC/1,"EGFR (Homo sapiens, UniProt P00533, G719C)",,,concentration not given,reference: untreated control,75%
O=C(O)c1ccc(Nc2ncc3c(n2)-c2ccc(Cl)cc2C(c2c(F)cccc2F)=NC3)cc1,CaMKIIδ(h),kinase activity,,1 µM,,123%
c1cnc2ccc(Nc3nc(NC4CC4)c4nc[nH]c4n3)cc2c1,"AKT3 (Homo sapiens, UniProt Q9Y243)","kinase activity, inhibitor, SelectScreen kinase profiling",,1 µM,reference: control,104%
C=CC(=O)N1CCC[C@@H](n2nc(-c3ccc(Oc4ccccc4)cc3)c3c(N)ncnc32)C1,MAP3K20,"kinase activity, inhibitor, HotSpot radiometric",,"100 nM, together with: ATP 10 µM",,79.3 ± 0.2%
O=[N+]([O-])c1ccc(N=Nc2c(O)ccc3ccccc23)c([N+](=O)[O-])c1,fdhA,,,"concentration not given, no demethylase",,> 80%
COc1cc(Nc2ncc3c(n2)-c2ccc(Cl)cc2C(c2c(F)cccc2OC)=NC3)ccc1C(=O)O,FES,kinase activity,,1 µM,,87%
CC(C)OCCn1c(=S)[nH]c(=O)c2[nH]ccc21,"Myeloperoxidase (MPO, Homo sapiens, UniProt P05164)",chlorination activity,,"0.3125 µM, 0.1 h, together with: iodide, TMB",,67.7%
C[C@@H](Oc1ccc(S(C)(=O)=O)cc1C(=O)N1C[C@@H]2C[C@]2(c2cc(C(F)(F)F)on2)C1)C(F)(F)F,"SLC6A9 (Homo sapiens, UniProt P48067, L476T)","glycine uptake, inhibitor, [3H]glycine uptake",,"0.003 µM, L422T mutant, log concentration 3, together with: [3H]glycine",reference: no inhibitor,75.5%
NC/C(=C\F)COc1cccc(Cn2c(=S)[nH]c(=O)c3[nH]cnc32)c1,"Peroxidasin homolog (PXDN, Homo sapiens, UniProt Q92626)","enzyme activity, inhibitor, Amplex UltraRed",,30 µM,reference: control,14.5% and 14.9%
CCCN1C(=O)COc2ccc(Nc3ccccc3Br)cc21,"Beclin 1-associated autophagy-related key regulator, with Beclin 1 (ATG14, Homo sapiens, UniProt Q6ZNE5)",NanoBRET,HEK293T,"100 µM, 24 h",reference: DMSO,72.9 ± 7.2%
